Results gathered from unrelated publications.
Values joined by “and” are separate records of one study, mostly repeats; a detail may differ. ± marks the error that the study gave.
CNR1: Cannabinoid receptor 1 (CNR1, Homo sapiens, UniProt P21554)
cyp121: Mycocyclosin synthase (cyp121, Mycobacterium tuberculosis, UniProt P9WPP7)
blaOXA-33: Beta-lactamase (blaOXA-33, Acinetobacter baumannii, UniProt Q8RLA6)
guaB: Inosine-5'-monophosphate dehydrogenase (guaB, Staphylococcus aureus, UniProt Q2YVL6)
Bcl-2-related protein A1 C113S/P104K: Bcl-2-related protein A1 (Mus musculus, UniProt Q07440, C113S/P104K)

The chains behind the UniProt entries cited, without tags or fusion partners. Residues count along the entry.
UniProt P21554, whole entry: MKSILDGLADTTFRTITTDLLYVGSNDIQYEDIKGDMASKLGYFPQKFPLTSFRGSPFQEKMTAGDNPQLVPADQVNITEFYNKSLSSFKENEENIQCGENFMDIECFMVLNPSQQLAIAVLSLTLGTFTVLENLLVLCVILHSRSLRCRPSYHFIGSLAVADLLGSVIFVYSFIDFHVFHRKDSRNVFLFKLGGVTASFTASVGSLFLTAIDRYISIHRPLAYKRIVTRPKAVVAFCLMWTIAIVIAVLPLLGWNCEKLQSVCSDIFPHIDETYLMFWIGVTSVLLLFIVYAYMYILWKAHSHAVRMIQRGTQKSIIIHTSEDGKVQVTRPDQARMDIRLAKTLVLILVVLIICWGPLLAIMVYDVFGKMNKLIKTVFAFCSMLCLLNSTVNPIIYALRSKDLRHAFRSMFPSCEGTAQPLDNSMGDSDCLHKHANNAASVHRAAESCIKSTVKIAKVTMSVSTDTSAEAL
UniProt Q8RLA6, 21-275 limits assumed: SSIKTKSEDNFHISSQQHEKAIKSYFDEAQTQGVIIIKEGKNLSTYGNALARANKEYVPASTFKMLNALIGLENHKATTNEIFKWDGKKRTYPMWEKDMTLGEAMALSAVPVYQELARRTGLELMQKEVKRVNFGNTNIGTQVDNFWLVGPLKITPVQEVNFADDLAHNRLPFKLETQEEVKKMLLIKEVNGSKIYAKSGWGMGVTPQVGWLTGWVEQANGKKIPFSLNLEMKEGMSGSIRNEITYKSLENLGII
UniProt Q2YVL6, whole entry: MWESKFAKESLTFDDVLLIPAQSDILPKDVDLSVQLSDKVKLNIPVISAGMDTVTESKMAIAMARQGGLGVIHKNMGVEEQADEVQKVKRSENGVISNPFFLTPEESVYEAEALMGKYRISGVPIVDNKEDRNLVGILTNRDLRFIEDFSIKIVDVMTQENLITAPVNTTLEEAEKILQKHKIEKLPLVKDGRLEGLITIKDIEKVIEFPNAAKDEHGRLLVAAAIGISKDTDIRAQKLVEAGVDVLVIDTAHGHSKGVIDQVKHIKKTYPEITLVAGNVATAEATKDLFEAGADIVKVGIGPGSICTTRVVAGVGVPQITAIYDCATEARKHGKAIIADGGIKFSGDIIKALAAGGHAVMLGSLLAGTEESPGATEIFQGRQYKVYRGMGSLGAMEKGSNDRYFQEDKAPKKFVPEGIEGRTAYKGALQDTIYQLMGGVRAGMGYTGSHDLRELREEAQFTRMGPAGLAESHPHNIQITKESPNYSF
UniProt Q07440, whole entry P104K/C113S, looked up: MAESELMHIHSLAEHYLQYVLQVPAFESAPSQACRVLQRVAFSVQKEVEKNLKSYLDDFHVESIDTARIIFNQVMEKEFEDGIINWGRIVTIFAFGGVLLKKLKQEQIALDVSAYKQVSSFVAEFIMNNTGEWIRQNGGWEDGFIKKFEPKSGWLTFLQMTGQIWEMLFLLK
UniProt Q2TR58, 19-280 limits assumed: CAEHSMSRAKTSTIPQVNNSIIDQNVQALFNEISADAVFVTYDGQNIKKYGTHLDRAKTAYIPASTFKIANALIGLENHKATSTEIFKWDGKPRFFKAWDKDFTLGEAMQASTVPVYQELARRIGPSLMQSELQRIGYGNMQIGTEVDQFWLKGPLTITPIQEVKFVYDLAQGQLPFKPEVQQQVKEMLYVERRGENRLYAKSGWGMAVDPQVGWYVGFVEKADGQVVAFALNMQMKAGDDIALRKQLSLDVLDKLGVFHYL
UniProt Q04430, whole entry: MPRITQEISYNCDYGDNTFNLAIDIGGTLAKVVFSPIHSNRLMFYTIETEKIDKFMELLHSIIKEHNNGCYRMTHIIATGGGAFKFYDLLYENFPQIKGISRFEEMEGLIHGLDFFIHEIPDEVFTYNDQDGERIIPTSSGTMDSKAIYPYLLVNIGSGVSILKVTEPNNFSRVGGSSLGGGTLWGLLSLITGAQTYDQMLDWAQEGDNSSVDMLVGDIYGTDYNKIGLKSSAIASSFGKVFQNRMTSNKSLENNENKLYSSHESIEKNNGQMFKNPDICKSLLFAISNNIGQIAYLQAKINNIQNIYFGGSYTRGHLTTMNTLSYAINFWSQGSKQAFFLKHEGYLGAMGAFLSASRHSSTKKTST
UniProt P34972, whole entry: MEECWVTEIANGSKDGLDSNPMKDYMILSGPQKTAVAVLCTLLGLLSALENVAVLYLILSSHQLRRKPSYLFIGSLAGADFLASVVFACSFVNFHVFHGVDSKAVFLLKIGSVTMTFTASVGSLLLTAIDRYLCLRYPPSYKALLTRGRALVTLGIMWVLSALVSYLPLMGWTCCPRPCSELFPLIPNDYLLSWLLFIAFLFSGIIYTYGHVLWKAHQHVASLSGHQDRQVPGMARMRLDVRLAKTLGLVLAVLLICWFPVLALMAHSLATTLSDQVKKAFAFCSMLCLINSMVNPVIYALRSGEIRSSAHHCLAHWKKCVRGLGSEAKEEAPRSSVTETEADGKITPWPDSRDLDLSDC
UniProt P0A6K3, whole entry: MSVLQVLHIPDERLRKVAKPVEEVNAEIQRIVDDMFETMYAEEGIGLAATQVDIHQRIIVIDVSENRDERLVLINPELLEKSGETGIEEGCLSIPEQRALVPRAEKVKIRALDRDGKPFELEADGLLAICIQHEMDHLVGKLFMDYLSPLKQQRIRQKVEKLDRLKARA
UniProt P00811, whole entry, looked up: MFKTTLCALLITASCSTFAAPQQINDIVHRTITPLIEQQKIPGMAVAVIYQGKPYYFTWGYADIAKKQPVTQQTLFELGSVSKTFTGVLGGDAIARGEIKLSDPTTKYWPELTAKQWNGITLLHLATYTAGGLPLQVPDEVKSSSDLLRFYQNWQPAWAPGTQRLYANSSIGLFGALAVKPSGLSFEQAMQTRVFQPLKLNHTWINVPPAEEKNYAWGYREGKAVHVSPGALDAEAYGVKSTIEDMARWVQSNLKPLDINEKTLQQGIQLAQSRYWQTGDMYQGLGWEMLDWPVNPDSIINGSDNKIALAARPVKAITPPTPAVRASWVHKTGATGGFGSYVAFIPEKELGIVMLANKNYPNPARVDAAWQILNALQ
UniProt Q48485, 24-384 limits assumed: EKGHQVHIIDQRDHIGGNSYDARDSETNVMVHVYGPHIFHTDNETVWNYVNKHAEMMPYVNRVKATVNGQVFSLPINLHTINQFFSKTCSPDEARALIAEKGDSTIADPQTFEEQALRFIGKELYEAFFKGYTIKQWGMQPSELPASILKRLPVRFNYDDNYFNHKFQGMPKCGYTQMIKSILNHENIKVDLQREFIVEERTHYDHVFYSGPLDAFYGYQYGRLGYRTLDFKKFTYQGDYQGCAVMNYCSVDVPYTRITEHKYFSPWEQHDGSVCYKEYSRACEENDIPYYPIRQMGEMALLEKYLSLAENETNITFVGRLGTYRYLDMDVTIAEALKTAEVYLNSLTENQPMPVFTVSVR
UniProt C7C422, 36-270 limits assumed: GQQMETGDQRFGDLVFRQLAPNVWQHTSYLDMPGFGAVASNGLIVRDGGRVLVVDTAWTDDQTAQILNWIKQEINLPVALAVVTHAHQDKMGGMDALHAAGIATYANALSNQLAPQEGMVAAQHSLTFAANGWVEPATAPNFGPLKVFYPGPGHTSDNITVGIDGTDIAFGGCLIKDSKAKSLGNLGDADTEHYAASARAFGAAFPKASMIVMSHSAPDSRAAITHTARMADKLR
UniProt P35462, whole entry: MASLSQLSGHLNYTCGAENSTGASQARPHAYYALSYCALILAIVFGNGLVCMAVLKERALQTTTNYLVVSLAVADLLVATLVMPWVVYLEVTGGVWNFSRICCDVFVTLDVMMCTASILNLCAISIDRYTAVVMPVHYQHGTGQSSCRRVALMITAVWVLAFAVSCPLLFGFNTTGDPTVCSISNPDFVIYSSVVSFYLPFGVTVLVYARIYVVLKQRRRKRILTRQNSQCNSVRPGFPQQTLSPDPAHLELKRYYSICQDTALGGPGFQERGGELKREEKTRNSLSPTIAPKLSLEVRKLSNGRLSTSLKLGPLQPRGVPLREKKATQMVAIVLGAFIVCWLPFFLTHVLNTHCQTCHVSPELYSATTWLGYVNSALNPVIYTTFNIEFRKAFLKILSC
UniProt Q8MXD1, 178-592 limits assumed: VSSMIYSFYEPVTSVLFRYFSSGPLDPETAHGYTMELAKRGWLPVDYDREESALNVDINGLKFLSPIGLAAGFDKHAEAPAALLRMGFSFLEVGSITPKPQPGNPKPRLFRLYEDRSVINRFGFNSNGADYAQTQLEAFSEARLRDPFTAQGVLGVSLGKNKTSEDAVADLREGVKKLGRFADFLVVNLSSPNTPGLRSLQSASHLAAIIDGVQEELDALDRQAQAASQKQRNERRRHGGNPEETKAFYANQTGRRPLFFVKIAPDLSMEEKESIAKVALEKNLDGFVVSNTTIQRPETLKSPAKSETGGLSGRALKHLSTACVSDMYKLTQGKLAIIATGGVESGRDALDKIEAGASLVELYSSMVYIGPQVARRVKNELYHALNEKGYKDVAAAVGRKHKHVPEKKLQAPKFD
UniProt Q6XEC0, 23-265 limits assumed: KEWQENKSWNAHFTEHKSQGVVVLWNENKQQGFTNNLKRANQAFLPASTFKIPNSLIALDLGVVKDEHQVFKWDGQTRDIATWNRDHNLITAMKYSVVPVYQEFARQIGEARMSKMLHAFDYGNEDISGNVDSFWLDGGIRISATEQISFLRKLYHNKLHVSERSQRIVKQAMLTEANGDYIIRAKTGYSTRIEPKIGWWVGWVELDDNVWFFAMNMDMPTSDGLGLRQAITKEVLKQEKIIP
UniProt P0A017, whole entry: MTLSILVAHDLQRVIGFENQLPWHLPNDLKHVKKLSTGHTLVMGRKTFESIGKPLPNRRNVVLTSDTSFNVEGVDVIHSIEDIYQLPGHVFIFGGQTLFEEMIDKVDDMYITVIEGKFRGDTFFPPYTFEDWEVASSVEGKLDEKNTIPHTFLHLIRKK
UniProt P06802, 92-905 isoform 2 limits assumed: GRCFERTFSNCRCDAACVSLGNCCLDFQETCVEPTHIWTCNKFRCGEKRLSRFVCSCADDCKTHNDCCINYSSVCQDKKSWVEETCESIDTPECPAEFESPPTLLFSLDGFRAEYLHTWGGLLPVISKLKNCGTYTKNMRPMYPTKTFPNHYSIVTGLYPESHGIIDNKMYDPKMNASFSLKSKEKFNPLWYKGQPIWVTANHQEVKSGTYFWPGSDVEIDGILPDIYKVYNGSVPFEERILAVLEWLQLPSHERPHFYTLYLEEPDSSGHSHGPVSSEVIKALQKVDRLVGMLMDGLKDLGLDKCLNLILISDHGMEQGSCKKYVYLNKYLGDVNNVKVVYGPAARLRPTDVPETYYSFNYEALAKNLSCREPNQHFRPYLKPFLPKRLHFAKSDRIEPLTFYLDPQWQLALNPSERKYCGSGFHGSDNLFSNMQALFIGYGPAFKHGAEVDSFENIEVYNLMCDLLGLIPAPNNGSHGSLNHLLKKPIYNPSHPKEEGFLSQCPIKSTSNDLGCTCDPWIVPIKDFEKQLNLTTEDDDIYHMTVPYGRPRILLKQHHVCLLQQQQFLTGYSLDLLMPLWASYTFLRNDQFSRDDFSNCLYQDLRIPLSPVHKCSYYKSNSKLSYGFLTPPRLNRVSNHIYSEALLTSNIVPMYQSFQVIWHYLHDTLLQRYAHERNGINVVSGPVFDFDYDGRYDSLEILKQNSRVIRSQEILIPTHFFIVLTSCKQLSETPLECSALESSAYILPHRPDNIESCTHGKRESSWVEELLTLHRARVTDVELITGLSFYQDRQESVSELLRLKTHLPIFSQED
UniProt P13955, whole entry: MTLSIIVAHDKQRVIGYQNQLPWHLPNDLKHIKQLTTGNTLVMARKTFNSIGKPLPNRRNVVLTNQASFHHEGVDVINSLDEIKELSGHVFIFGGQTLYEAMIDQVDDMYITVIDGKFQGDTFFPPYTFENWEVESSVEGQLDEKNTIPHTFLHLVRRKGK
UniProt P19491, 22-883 limits assumed: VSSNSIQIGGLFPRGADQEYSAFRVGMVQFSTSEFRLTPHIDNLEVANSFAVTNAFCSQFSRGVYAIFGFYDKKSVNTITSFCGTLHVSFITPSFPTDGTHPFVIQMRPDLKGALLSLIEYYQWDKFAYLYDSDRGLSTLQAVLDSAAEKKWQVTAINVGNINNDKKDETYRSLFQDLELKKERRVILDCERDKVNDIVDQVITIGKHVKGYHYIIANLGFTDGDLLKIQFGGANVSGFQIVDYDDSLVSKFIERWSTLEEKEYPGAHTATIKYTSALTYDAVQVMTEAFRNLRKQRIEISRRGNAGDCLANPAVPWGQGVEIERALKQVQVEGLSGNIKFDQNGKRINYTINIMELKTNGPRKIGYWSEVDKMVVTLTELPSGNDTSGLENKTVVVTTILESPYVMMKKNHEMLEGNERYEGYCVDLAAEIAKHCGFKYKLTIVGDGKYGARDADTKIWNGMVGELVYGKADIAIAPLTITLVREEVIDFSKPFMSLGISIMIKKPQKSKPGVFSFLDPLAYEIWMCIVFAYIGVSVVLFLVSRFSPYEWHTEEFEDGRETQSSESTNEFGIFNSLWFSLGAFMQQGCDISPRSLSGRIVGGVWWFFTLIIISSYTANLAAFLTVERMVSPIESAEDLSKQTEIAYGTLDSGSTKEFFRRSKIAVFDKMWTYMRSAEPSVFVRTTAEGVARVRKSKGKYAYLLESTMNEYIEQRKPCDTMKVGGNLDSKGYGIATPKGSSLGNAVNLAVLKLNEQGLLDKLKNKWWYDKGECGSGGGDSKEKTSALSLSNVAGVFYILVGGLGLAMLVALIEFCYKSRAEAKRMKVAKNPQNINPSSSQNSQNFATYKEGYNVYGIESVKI

Structure (SMILES) | target or system | assay | system | conditions | quantity | value
CC(C)(NC(=O)Nc1ccc(Cl)cc1)c1cccc(C(=N)NO)c1 | IMPDH 2, Staphylococcus aureus, G445S | inhibitor |  | added: 500 µM NAD+, 1.0 mM IMP | Ki | 4.2 ± 0.1 µM
NC[C@@H](NC[C@@H]1CCCN1C[C@@H](CO)NC[C@@H](NCCC1CC2CCC1C2)c1ccccc1)c1ccccc1 (stereo partly shown) | Acinetobacter baumannii | bacterial growth |  | 24 µM, fold shift of IC90, added: amikacin | potentiation of amikacin | 4 fold
O=C(O)c1ccc(-c2cccc(C(=O)O)c2)cc1 | Beta-lactamase OXA-58 (OXA-58, Acinetobacter baumannii, UniProt Q2TR58) | enzyme activity, inhibitor |  | enzyme 0.1 nM, added: nitrocefin 30 µM | Ki | 45.8 ± 0.6 µM
O=C(NC1CCN(c2ncnc3c2nc(-c2ccccc2Cl)n3-c2ccc(Cl)cc2)CC1)C1CCCC1 | CNR1 | binding, radioligand displacement | CHO cell membranes | added: [3H]CP55940 | Ki | 0.0015 µM
CCC(c1ccc(-c2ccc(OC(F)(F)F)cc2)cc1)n1ccnc1 (stereo not shown) | cyp121 |  |  | racemate | Kd | ≤ 6 µM
NC[C@@H](NC[C@@H]1CCCN1C[C@@H](CO)NC[C@@H](NCCC12CC3CC(CC(C3)C1)C2)c1ccccc1)c1ccccc1 | Escherichia coli | bacterial growth |  | 8 µM, fold shift of IC90, added: amikacin | potentiation of amikacin | 1 fold
Cc1c(C(=O)NN2CCCCC2)nn(-c2ccc(Cl)cc2Cl)c1-c1ccc(CCCCCBr)cc1 | CNR1 | radioligand displacement |  | added: [3H]CP55,940 | Ki | 0.0015 µM
CN(C)c1cc(CN2CCOCC2)nc2nc(NCc3ccc(C(C)(C)C)cc3)nn12 | CAB1 (Saccharomyces cerevisiae, UniProt Q04430) | enzyme activity, inhibitor, ADP-Glo, Lineweaver-Burk |  | added: ATP 1000 µM | Ki | 0.012 µM
CC(=NO)c1cccc(C(C)(C)NC(=O)Nc2ccc(Cl)c(-c3nc(C(F)(F)F)cs3)c2)c1 | IMPDH 2, Staphylococcus aureus, Y446C | inhibitor |  | added: 8 mM NAD+, 1.0 mM IMP | Ki | 0.92 ± 0.03 µM
NCCNCCSc1ccccc1 |  |  | n-octanol/phosphate buffer | 50 µg/mL, pH 7.4 | logP | -0.59 ± 0.05
O=C(CC1CCCC1)NC1CCN(c2ncnc3c2nc(-c2ccccc2Cl)n3-c2ccc(Cl)cc2)CC1 | Cannabinoid receptor 2 (CNR2, Homo sapiens, UniProt P34972) | binding, radioligand displacement | CHO cell membranes | added: [3H]CP55940 | Ki | 0.57 µM
COc1ccc(CN[C@@H]2CO[C@H](C(c3ccccc3)c3ccccc3)C[C@H]2O)cc1 | 5-hydroxytryptamine receptor 2C (HTR2C, Homo sapiens, UniProt P28335) | radioligand binding |  | 10 µM, added: [3H]mesulergine | inhibition | 30.6%
Nc1nnc(SSc2nnc(N)s2)s1 | Peptide deformylase (def, Escherichia coli, UniProt P0A6K3) | enzyme activity, slow-binding inhibitor |  | average direct and calculated | Ki | 3 µM
Cc1cc(C)c(Nc2nc(Nc3ccc(C#N)cc3)nc(OCCCN3CCOCC3)n2)c(C)c1 | Gag-Pol polyprotein, reverse transcriptase (gag-pol, Human immunodeficiency virus 1, UniProt P03366) | nucleotide incorporation, inhibitor, pre-steady-state burst |  | added: dATP | Ki | 0.014 ± 0.004 µM
O=S(=O)(O)c1ccc(-c2ccc(S(=O)(=O)O)cc2)cc1 | blaOXA-33 | enzyme activity, inhibitor |  | enzyme 0.2 nM, added: nitrocefin 30 µM | Ki | 70 ± 3 µM
O=C(NO)c1cc(F)cc(F)c1 | Histone deacetylase 6 (hdac6, Danio rerio, UniProt F8W4B7) | enzyme activity, inhibitor, steady-state kinetics |  |  | Ki | 1.7 ± 0.2 µM
CCCCCCCCCCCCNC(=O)N[C@H](C(=O)N[C@H]1/C=C/CCNC(=O)/C=C/[C@H](C)NC1=O)C(C)C | Proteasome subunit beta type-7 (PSMB7, Homo sapiens, UniProt Q99436) | trypsin-like activity, inhibitor, Proteasome-Glo | MM.1R | 24 h | Ki | 0.0537 ± 0.0159 µM
Cc1cc(O)nc2ccc(NS(=O)(=O)c3cc(Cl)cc(Cl)c3O)cc12 | Beta-lactamase (ampC, Escherichia coli K-12, UniProt P00811) | inhibitor, concentration-response curves |  | added: nitrocefin 50 µM | Ki | 3.64 µM
CN1CC[C@]23c4c5ccc(O)c4O[C@H]2c2ncc(-c4ccc(Cl)cc4)cc2C[C@@]3(OCCCc2ccccc2)[C@H]1C5 |  | tolerance | CD-1 mouse, chemotherapy-induced neuropathy | sc, 3.2 mg/kg twice daily, 4 days | days to zero efficacy | 4.3 days
C=C(C)c1cccc(C(C)(C)NC(=O)Nc2ccc(Cl)c(N)c2)c1 | guaB | inhibitor |  | added: 1000 µM IMP and 1000 µM NAD+ | Ki | 0.0128 ± 0.0007 µM
CSC[C@H](NC(=O)Cc1ccc(N)cc1)C(=O)N[C@@H](Cc1ccccc1)[C@H](O)C(=O)N1CSC(C)(C)[C@H]1C(=O)N[C@H]1c2ccccc2C[C@H]1O | Plasmepsin I (PMI, Plasmodium falciparum, UniProt P39898) | inhibitor, fluorogenic substrate |  | pH 5.0, mature enzyme | Ki | 0.00047 µM
O=[N+]([O-])c1ccc(N=Nc2c(S(=O)(=O)O)cc3cc(S(=O)(=O)O)ccc3c2O)c([N+](=O)[O-])c1 | Bcl-2-related protein A1 C113S/P104K | binding, inhibitor, fluorescence polarization |  | added: FITC-labelled Noxa peptide | Ki | 2.32 µM

Structure (SMILES) | target or system | assay | system | conditions | quantity | value
O=C(O)CC1Sc2nnc(-c3cccs3)n2N=C1c1ccc(Cl)cc1 (stereo not shown) | UDP-galactopyranose mutase (Klebsiella pneumoniae, UniProt Q48485) | enzyme activity, inhibitor, HPLC |  |  | Ki | 8 ± 3 µM
[11CH3]Nc1ccc(C(=O)C2CCN(C3Cc4ccccc4CC3O)CC2)cc1 (single isomer, unassigned) |  |  | Sprague-Dawley rat, fat | intravenous, dose not given, 5 min | radioactivity uptake | 0.18 %ID/g
Nc1cc(S(=O)(=O)O)cc2cc(S(=O)(=O)O)cc(O)c12 | blaOXA-33 | enzyme activity, inhibitor |  | enzyme 0.2 nM, added: nitrocefin 30 µM | Ki | 140 ± 7 µM
CC(C)(NC(=O)Nc1ccc(Cl)c(-c2nc(C(F)(F)F)cs2)c1)c1cccc(C(N)=NO)c1 | guaB | inhibitor |  | added: 1000 µM IMP and 1000 µM NAD+ | Ki | 0.01 ± 0.002 µM
C[C@H](CS)C(=O)N[C@@H](Cc1c[nH]c2ccccc12)C(=O)O | Enterobacter aerogenes |  | VIM-1 producing | 25 µM, added: meropenem | MIC of meropenem | 16 µg/mL
COC(=O)[C@@H](CS)N1C(=O)c2ccc(N(C)C)cc2C1=O | Metallo-beta-lactamase type 2 (blaNDM-1, Klebsiella pneumoniae, UniProt C7C422) | binding, inhibitor |  |  | Ki | 0.2 ± 0.03 µM
C[C@@H]1CN(C)CCN1c1nc(-c2ccc(F)cc2)cs1 | Sodium-dependent serotonin transporter (Slc6a4, Rattus norvegicus, UniProt P31652) | [3H]5-HT uptake, inhibitor |  | no preincubation | Ki | 0.11 ± 0.02 µM
O[C@H](c1ccc(F)cc1)C(F)(F)CCN1CCC(O)(c2ccc(Cl)cc2)CC1 (racemic) | D(3) dopamine receptor (DRD3, Homo sapiens, UniProt P35462) |  |  |  | Ki | 5.26 ± 0.837 µM
O=c1c2ccc(Oc3ccc(OC(F)(F)F)cc3)cc2[nH]c2cc(F)cc(F)c12 | Dihydroorotate dehydrogenase (Toxoplasma gondii, UniProt Q8MXD1) | enzyme activity, competitive inhibitor, DCIP reduction |  |  | Ki | 2.03 µM
O=C(Cc1cccs1)NC(B(O)O)c1cccc(C(=O)O)c1 (stereo not shown) | ADC-7 beta-lactamase (Acinetobacter baumannii, UniProt Q6DRA1) | inhibitor |  | pH 7.4, room temperature, added: nitrocefin substrate | Ki | 0.011 ± 0.001 µM
O=S(=O)(O)c1ccc2cc(S(=O)(=O)O)ccc2c1 | Beta-lactamase OXA-48 (OXA-48, Klebsiella pneumoniae, UniProt Q6XEC0) | enzyme activity, inhibitor |  | 0.2 nM enzyme, added: nitrocefin 30 µM | Ki | < 10 µM and 5.1 µM
O=[N+]([O-])c1ccc(N=Nc2c(O)ccc3cc(S(=O)(=O)O)ccc23)cc1 | Bcl-2-related protein A1 C113S/P104K | binding, inhibitor, fluorescence polarization |  | added: FITC-labelled Noxa peptide | Ki | 3 µM
Nc1nc2c(ncn2[C@@H]2CC[C@H](OC(C(=O)O)P(=O)(O)O)C2)c(=O)[nH]1 (relative stereo) | Gag-Pol polyprotein, reverse transcriptase (gag-pol, Human immunodeficiency virus type 1 group M subtype B, UniProt P04585) | competitive inhibitor |  | added: varying dGTP, poly rC.dG | Ki | 0.362 µM
COc1ccc(S(=O)(=O)N(CC(C)C)C[C@@H](O)[C@H](Cc2ccccc2)NC(=O)O[C@H]2CO[C@H]3C[C@H]4OCC[C@H]4[C@H]32)cc1 | Gag-Pol polyprotein, protease (gag-pol, Human immunodeficiency virus type 1 group M subtype B, UniProt P04585) | protease activity, inhibitor |  |  | Ki | 0.00143 µM
CCc1nc(N)nc(N)c1C#CC(C)c1cc2c(c(-c3ccc(C(=O)O)cc3)c1)OCO2 (stereo not shown) | Dihydrofolate reductase (folA, Staphylococcus aureus, UniProt P0A017) | inhibitor |  |  | Ki | 0.00117 ± 2e-05 µM
C=C(C)c1cccc(C(C)(C)NC(=O)Nc2ccc(Cl)cc2)c1 | guaB | inhibitor |  | added: 1000 µM IMP and 1000 µM NAD+ | Ki | 0.0095 ± 0.001 µM
COc1cc2ncnc(NCc3ccc(P(=O)(O)O)cc3)c2cc1OC | Ectonucleotide pyrophosphatase/phosphodiesterase family member 1 (Enpp1, Mus musculus, UniProt P06802) | enzyme activity, inhibitor, coupled luciferase AMP detection |  | pH 7.4, added: cGAMP 5 µM | Ki | 0.012 µM
CCc1nc(N)nc(N)c1C#CC(C)c1cc2c(c(-c3ccc(CC(=O)O)cc3)c1)OCO2 (stereo not shown) | Dihydrofolate reductase type 1 from Tn4003 (Staphylococcus aureus, UniProt P13955) | inhibitor |  |  | Ki | 0.0104 ± 0.0008 µM
C=CC(c1ccc(-c2ccc(OC)c(C)c2)cc1)n1ccnc1 (single isomer, unassigned) | cyp121 |  |  | enantiomer E2 | Kd | 2.6 µM
O=S(=O)(O)c1ccc2c(c1)Cc1cc(S(=O)(=O)O)ccc1-2 | blaOXA-33 | enzyme activity, inhibitor |  | enzyme 0.2 nM, added: nitrocefin 30 µM | Ki | 34 ± 1 µM
O=C(O)C(Cc1nn[nH]n1)[C@@H]1CCN[C@H]1C(=O)O (relative stereo) | Glutamate receptor 2 (Gria2, Rattus norvegicus, UniProt P19491) | binding |  |  | Ki | > 1000 µM

A few entries again:
Structure (SMILES) | target or system | assay | system | conditions | quantity | value
CC(=NO)c1cccc(C(C)(C)NC(=O)Nc2ccc(Cl)c(-c3nc(C(F)(F)F)cs3)c2)c1 | IMPDH 2, Staphylococcus aureus, Y446C | inhibitor |  | added: 8 mM NAD+, 1.0 mM IMP | Ki | 0.92 ± 0.03 µM
O=C(O)C(Cc1nn[nH]n1)[C@@H]1CCN[C@H]1C(=O)O (relative stereo) | Glutamate receptor 2 (Gria2, Rattus norvegicus, UniProt P19491) | binding |  |  | Ki | > 1000 µM
